Earlier results that unrelated publications cite.

SMILES | test system | conditions | Cmax
CC#CC(=O)N1CC[C@@H](n2c(=O)n(-c3ccc(Oc4ccccc4)cc3)c3c(N)ncnc32)C1 | relapsed NHL and CLL patients, plasma | oral, 20 to 600 mg single | 63.7 to 1510 ng/mL
C[C@]12CC[C@@H]3c4ccc(O)cc4CC[C@H]3[C@@H]1CC[C@@H]2O | plasma | concentration not given | 0.6 nM
C#Cc1cccc(Nc2ncnc3cc(OCCOC)c(OCCOC)cc23)c1 | patients, plasma | dose not given, total concentration | 3110 nM
C=CC1=C(C(=O)O)N2C(=O)[C@@H](NC(=O)/C(=N\OCC(=O)O)c3csc(N)n3)[C@H]2SC1 | plasma | concentration not given | 7290 nM
CC1=N[C@]2(C(=O)CO)[C@@H](C[C@H]3[C@@H]4C[C@@H](O)C5=CC(=O)C=C[C@]5(C)[C@H]4[C@@H](O)C[C@@]32C)O1 | children with Duchenne muscular dystrophy, plasma | oral daily, 0.9 mg/kg/day of deflazacort, steady state, age 4-11 years, added: deflazacort 0.9 mg/kg/day | 125 ng/mL
Cc1cc(=O)n(-c2ccccc2)n1C | plasma | concentration not given | 92500 nM
COc1cc2nccc(Oc3ccc(NC(=O)C4(C(=O)Nc5ccc(F)cc5)CC4)cc3)c2cc1OC | patients, plasma | dose not given, total concentration | 4430 nM
CC[C@H](C)C(=O)O[C@H]1C[C@H](O)C=C2C=C[C@H](C)[C@H](CC[C@@H](O)C[C@@H](O)CC(=O)O)[C@H]21 | plasma | concentration not given | 100 nM
Nc1nc(NC2CC2)c2ncn([C@H]3C=C[C@@H](CO)C3)c2n1 | Japanese HIV-infected patients | 600 mg, single dose, fasted, added: lamivudine 300 mg | 5680 ng/mL
CCN(CC)CCNC(=O)c1c(C)[nH]c(/C=C2\C(=O)Nc3ccc(F)cc32)c1C | patients, plasma | dose not given, total concentration | 180 nM
Cc1ccccc1-c1cc(N2CCN(C)CC2)ncc1N(C)C(=O)C(C)(C)c1cc(C(F)(F)F)cc(C(F)(F)F)c1 | healthy volunteers, plasma | oral, dose not given, netupitant-palonosetron combination, added: oral contraceptives | 600 ng/mL
CCOC(=O)[N-]c1cn(N2CCOCC2)n[o+]1 | plasma | concentration not given | 310 nM
Cc1nc(Nc2ncc(C(=O)Nc3c(C)cccc3Cl)s2)cc(N2CCN(CCO)CC2)n1 | patients, plasma | dose not given, total concentration | 210 nM
O=C1c2cccc3c2[C@H](CCC3)CN1[C@@H]1CN2CCC1CC2 | healthy volunteers | oral, 0.75 mg single dose, mean, added: netupitant 450 mg | 1.86 ng/mL
CN(C)C/C=C/C(=O)Nc1cc2c(Nc3ccc(F)c(Cl)c3)ncnc2cc1O[C@H]1CCOC1 | patients, plasma | dose not given, total concentration | 100 nM
Nc1ccn([C@@H]2CS[C@H](CO)O2)c(=O)n1 | Japanese HIV-infected patients | 300 mg, single dose, fasted, added: abacavir 600 mg | 3580 ng/mL
CN(C)C(=O)c1cc2cnc(Nc3ccc(N4CCNCC4)cn3)nc2n1C1CCCC1 | glioblastoma patients | 900 mg once daily, 5 days | 3750 nM

Repeated from above:
SMILES | test system | conditions | Cmax
CC1=N[C@]2(C(=O)CO)[C@@H](C[C@H]3[C@@H]4C[C@@H](O)C5=CC(=O)C=C[C@]5(C)[C@H]4[C@@H](O)C[C@@]32C)O1 | children with Duchenne muscular dystrophy, plasma | oral daily, 0.9 mg/kg/day of deflazacort, steady state, age 4-11 years, added: deflazacort 0.9 mg/kg/day | 125 ng/mL
Cc1cc(=O)n(-c2ccccc2)n1C | plasma | concentration not given | 92500 nM
